Results of several laboratories.
Protocols differ between the studies behind these lines.

Structure (SMILES)	assay	system	setting	quantity	value
FC(F)(F)c1ccc(CNc2ccc(Cc3c[nH]c4ncc(Cl)cc34)cn2)cn1	–	patients with advanced solid tumours	oral, dose not given, all grades, related to treatment	patients with AST increase	35%
C=CC[C@@H]1/C=C(\C)C[C@H](C)C[C@H](OC)[C@H]2O[C@@](O)(C(=O)C(=O)N3CCCC[C@H]3C(=O)O[C@H](/C(C)=C/[C@@H]3CC[C@@H](O)[C@H](OC)C3)[C@H](C)[C@@H](O)CC1=O)[C@H](C)C[C@@H]2OC	–	kidney transplant recipients, CYP3A5*1/*1 or *1/*3 rapid metabolizers, whole blood	oral, dose not given	patients with supratherapeutic C0	0%
CNC(=O)c1ccc(-c2cnc3ncc(Cc4ccc5ncccc5c4)n3n2)cc1F	item: Hypoalbuminemia, all grades	hepatocellular carcinoma patients	oral, 600 mg twice daily, expansion cohort, any causality	patients with adverse event	0%
CC(C)C[C@H](NC(=O)[C@@H](Cc1c[nH]c2ccccc12)NC(=O)[C@H](Cc1ccc(O)cc1)NC(=O)[C@H](CO)NC(=O)[C@H](Cc1c[nH]c2ccccc12)NC(=O)[C@H](Cc1c[nH]cn1)NC(=O)[C@@H]1CCC(=O)N1)C(=O)N[C@@H](CCCNC(=N)N)C(=O)N1CCC[C@H]1C(=O)NCC(N)=O	–	Chinese CPP children, boys	intramuscular, 22.5 mg, 12 months, day 1, month 6	patients with TEAEs	100%
C=CCN1CC(=O)N2[C@@H](Cc3ccc(O)cc3F)C(=O)N(Cc3cccc(N4CC(N5CCN(CC)CC5)C4)n3)C[C@@H]2N1C(=O)NCc1ccccc1	–	advanced solid tumour patients	10 mg twice daily, treatment-related, any grade	patients with ALT increased	0%
FC(F)(F)c1ccc(CNc2ccc(Cc3c[nH]c4ncc(Cl)cc34)cn2)cn1	item: gastroesophageal reflux disease	advanced solid tumour patients	oral, 1000 mg/day, all grades, all cohorts	patients with treatment-related adverse event	4%
NC(=O)N1c2ccccc2C=Cc2ccccc21	–	male patients	oral, dose not given, on-treatment adverse events	patients with Diarrhea	7%
O=C(Nc1nc2cccc(-c3ccc(CN4CCS(=O)(=O)CC4)cc3)n2n1)C1CC1	–	rheumatoid arthritis patients	oral, 100 mg twice daily, 4 weeks, TEAE regardless of relatedness	patients with Regurgitation	0%
COCCOc1cnc2ccn([C@H](C)c3nnc4c(F)cc(-c5cnn(C)c5)cn34)c(=O)c2c1	–	cancer patients	oral, dose not given, increase from baseline >30 ms	patients with QTcF increase	35.1%
COc1ccc([C@@H](O)c2cc(-c3ncnc4cc(N5CCOCC5)ccc34)c(F)cc2Cl)nn1	item: general and administration site disorders	locally advanced rectal cancer patients	250 mg, with: capecitabine plus radiotherapy	patients with TEAE	50%
Cc1cc(NC2CCN(C(=O)OC3CCN(C(=O)/C=C/CN(C)C)C3)CC2)n2ncc(C(C)C)c2n1 (stereo not drawn)	Phase I dose escalation CTCAE v4.0, item: urinary tract infection	patients with advanced solid tumours	dose not given, TIW dosing grade 3 or higher	patients with adverse event	0%
O=C(NC[C@H]1CN(c2ccc(N3CCOCC3=O)cc2)C(=O)O1)c1ccc(Cl)s1	Phoenix NLME	atrial fibrillation patients, plasma	oral, dose not given	patients below AUC range	48%
COc1cc(Nc2ncc3c(n2)-c2ccc(Cl)cc2C(c2c(F)cccc2OC)=NC3)ccc1C(=O)O	–	cancer patients	oral, dose not given, all grades any attribution, with: pembrolizumab	patients with weight loss	25%
Cc1cc(-c2nnc(N)nc2-c2ccc(F)cc2)cc(Cl)n1	item: Colitis	IO-naive mCRPC patients, male	oral, dose not given, treatment-related, all grades	patients with immune-mediated AE	0%
Cc1ccc(C(=O)N(CCCN)C(c2nc3snc(C)c3c(=O)n2Cc2ccccc2)C(C)C)cc1 (stereo not drawn)	–	patients	intravenous, 16 mg/day	patients with grade ≥3 mucosal inflammation	22%
C[C@@H](Nc1cc(F)cc(F)c1)c1cc(C(=O)N(C)C)cc2c(=O)cc(N3CCOCC3)oc12	item: Syncope	advanced solid tumour patients	oral, dose not given, dose finding	patients discontinuing for AE	0%
CCOc1c([C@H](C)n2nc(C)c3c(N)ncnc32)cc(Cl)c(F)c1[C@@H]1CNC(=O)C1	item: QRS ≤100 ms	previously treated B-cell malignancy	oral, 30 mg once daily, baseline below thresholds	patients	100%
CNC(=O)c1cc(Oc2ccc(NC(=O)Nc3cc(C(C)(C)C)nn3-c3ccc4ncccc4c3)c(F)c2)ccn1	–	patients	oral, dose not given, cycles 1 and 2, Low Cmax subgroup	patients with cardiac disorders	12%
